Assay results collected from several papers.
Protocols differ between the studies behind these lines. “And” joins repeats or separate records; there may be more than shown. ± marks the error that the study gave.
rhlR: HTH-type quorum-sensing regulator RhlR (rhlR, Pseudomonas aeruginosa, UniProt P54292)
UniProt P54292, sequence (whole entry, looked up): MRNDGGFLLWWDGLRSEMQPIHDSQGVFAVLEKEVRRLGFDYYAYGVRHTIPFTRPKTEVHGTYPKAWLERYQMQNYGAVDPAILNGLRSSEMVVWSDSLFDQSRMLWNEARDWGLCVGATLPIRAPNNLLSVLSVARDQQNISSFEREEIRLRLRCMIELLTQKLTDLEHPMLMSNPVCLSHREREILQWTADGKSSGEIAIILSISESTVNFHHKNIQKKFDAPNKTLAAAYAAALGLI
uncharacterized protein: uncharacterized protein (Streptococcus mutans serotype c, UniProt Q8DS94)
UniProt P33534, sequence (whole entry, looked up): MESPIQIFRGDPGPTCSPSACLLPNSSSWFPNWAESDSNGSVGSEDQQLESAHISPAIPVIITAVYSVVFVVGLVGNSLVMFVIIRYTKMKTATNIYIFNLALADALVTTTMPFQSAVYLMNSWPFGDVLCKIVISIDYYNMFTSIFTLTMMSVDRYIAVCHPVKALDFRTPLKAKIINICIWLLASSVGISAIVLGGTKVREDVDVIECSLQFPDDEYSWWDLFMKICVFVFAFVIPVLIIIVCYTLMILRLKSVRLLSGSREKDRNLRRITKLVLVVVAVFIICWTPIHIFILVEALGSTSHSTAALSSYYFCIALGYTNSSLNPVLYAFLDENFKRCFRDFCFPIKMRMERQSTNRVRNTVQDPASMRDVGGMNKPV
UniProt P50391, sequence (whole entry, looked up): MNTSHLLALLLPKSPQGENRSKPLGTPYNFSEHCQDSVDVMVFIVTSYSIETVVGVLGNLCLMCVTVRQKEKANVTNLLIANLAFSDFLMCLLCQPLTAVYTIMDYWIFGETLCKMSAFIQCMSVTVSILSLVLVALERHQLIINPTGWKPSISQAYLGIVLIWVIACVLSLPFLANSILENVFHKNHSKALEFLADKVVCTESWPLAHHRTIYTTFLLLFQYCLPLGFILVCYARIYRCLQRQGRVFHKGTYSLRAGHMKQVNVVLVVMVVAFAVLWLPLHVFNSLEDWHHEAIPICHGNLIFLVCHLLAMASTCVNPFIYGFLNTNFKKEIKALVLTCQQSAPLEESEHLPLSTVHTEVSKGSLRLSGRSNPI
UniProt Q9VNB5, sequence (whole entry, looked up): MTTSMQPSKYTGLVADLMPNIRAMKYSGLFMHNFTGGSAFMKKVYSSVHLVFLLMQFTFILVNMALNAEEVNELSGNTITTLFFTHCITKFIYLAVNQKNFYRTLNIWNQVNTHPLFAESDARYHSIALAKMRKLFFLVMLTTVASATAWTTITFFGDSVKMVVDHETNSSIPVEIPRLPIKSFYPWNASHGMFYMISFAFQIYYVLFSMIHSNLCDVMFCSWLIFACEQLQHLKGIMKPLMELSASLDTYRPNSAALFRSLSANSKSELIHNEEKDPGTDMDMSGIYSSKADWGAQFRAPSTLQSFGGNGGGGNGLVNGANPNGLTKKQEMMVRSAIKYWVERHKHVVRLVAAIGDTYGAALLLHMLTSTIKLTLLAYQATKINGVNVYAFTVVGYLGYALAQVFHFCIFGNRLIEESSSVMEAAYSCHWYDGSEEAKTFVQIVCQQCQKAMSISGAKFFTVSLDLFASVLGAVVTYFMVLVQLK
UniProt P32245, sequence (whole entry, unmodified, looked up): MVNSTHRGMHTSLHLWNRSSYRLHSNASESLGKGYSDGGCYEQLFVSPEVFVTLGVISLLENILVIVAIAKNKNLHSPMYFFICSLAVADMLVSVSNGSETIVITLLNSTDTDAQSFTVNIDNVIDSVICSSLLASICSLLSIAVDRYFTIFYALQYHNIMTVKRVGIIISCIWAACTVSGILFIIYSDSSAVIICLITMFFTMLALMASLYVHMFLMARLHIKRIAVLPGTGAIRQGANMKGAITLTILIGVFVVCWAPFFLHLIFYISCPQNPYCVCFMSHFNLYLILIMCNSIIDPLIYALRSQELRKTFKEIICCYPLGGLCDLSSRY

Compound	target	test	system	setting	EC50
CC(=O)N[C@@H](CCCNC(=N)N)C(=O)N[C@H](Cc1ccc(O)cc1)C(=O)N[C@@H](CCCNC(=N)NC(=O)NCCCCN)C(=O)N[C@@H](CC(C)C)C(=O)N[C@@H](CCCNC(=N)N)C(=O)N[C@@H](Cc1ccc(O)cc1)C(N)=O	NPY4R (Homo sapiens, UniProt P50391)	calcium signal, agonist	–	–	0.608 µM
O=C(NC1CCSC1=O)C1CCC1 (stereo not drawn)	rhlR	reporter gene, agonist, item: rhlI-gfp fluorescence	PAO-JP2 reporter	–	1.65 µM
CC[C@H](C)[C@H](NC(=O)[C@H](Cc1c[nH]cn1)NC(=O)[C@@H](NC(=O)[C@H](CCC(N)=O)NC(=O)[C@H](CCCNC(=N)N)NC(=O)[C@@H](NC(=O)[C@@H](N)CCC(=O)O)[C@@H](C)CC)[C@@H](C)O)C(=O)N[C@H](C(=O)N[C@@H](Cc1ccccc1)C(=O)N[C@@H](Cc1ccccc1)C(=O)N[C@@H](Cc1ccccc1)C(=O)N[C@@H](Cc1ccccc1)C(=O)N[C@@H](Cc1ccccc1)C(=O)N[C@@H](CCCCN)C(=O)N[C@@H](CCCNC(=N)N)C(=O)N[C@@H](CCCNC(=N)N)C(=O)O)[C@@H](C)CC	histidine kinase ComD (Streptococcus pneumoniae serotype 2, UniProt A0A0H2ZM50)	reporter gene, agonist	Streptococcus pneumoniae, D39 comX::lacZ	30 min, pH 7.3, 37 °C	> 10 µM
O=C(N[C@H]1CCOC1=O)C1CCCC1	rhlR	reporter gene, agonist	PAO-JP2 prhlI-LVAgfp	together with: OdDHL 100 nM	4.5 µM and 4.6 µM
CN1CCC[C@H]1c1cncc(C=O)c1	Acetylcholine receptor subunit alpha-type acr-16 (Ascaris suum, UniProt F1KYJ9)	ion current, agonist, two-electrode voltage clamp	–	oocytes	11.5 µM
C[n+]1ccc(C(=O)NC2CCC3(O)C4Cc5ccc(O)c6c5C3(CC[N+]4(C)CC3CC3)C2O6)cc1 (stereo not drawn)	Oprk1 (Mus musculus, UniProt P33534)	GTPγS binding, agonist, radiometric	–	cell membranes	0.143 µM
CC(C)C[C@H](NC(=O)[C@H](CO)NC(=O)CNC(=O)[C@@H](N)CO)C(=O)N[C@@H](CO)C(=O)N[C@H](C(=O)N[C@@H](Cc1ccccc1)C(=O)N[C@@H](Cc1ccccc1)C(=O)N[C@@H](CCCNC(=N)N)C(=O)N[C@@H](CC(C)C)C(=O)N[C@@H](Cc1ccccc1)C(=O)N[C@@H](CC(N)=O)C(=O)N[C@@H](CCCNC(=N)N)C(=O)N[C@@H](CO)C(=O)N[C@@H](Cc1ccccc1)C(=O)N[C@H](C(=O)N[C@@H](CCC(N)=O)C(=O)N[C@H](C)C(=O)O)[C@@H](C)O)[C@@H](C)O	uncharacterized protein	–	Streptococcus mutans	–	> 1 µM
CC(=O)N[C@@H](CCCNC(=N)N)C(=O)N[C@H](Cc1ccc(Cl)cc1)C(=O)N1Cc2ccccc2C[C@H]1C(=O)N[C@H](Cc1ccc([N+](=O)[O-])cc1)C(N)=O	MC4R (Homo sapiens, UniProt P32245, L106P)	reporter gene, agonist	–	–	~0.003 µM
CC(C)C[C@H](NC(=O)[C@H](C)NC(=O)[C@H](CCC(N)=O)NC(=O)[C@@H](NC(=O)[C@H](Cc1ccccc1)NC(=O)[C@H](CO)NC(=O)[C@H](CCCNC(=N)N)NC(=O)[C@H](CC(N)=O)NC(=O)[C@H](Cc1ccccc1)NC(=O)[C@H](CC(C)C)NC(=O)[C@H](CCCNC(=N)N)NC(=O)[C@H](Cc1ccccc1)NC(=O)[C@H](Cc1ccccc1)NC(=O)[C@@H](NC(=O)[C@@H](CO)NC(=O)[C@H](CC(C)C)NC(=O)[C@H](CO)NC(=O)CNC(=O)[C@@H](N)CO)[C@@H](C)O)[C@@H](C)O)C(=O)NCC(=O)N[C@@H](CCCCN)C(=O)O	uncharacterized protein	–	Streptococcus mutans	–	0.64 µM
CC(C)C[C@H](NC(=O)[C@@H]1CCC(=O)N1)C(=O)N[C@H](C(=O)N[C@@H](Cc1ccccc1)C(=O)N[C@H](C(=O)N1CCC[C@H]1C(=O)NCC(=O)N[C@@H](Cc1c[nH]c2ccccc12)C(=O)NCC(=O)N[C@@H](CCC(N)=O)C(N)=O)[C@@H](C)O)[C@@H](C)O	Adipokinetic hormone receptor (Bombyx mori, UniProt Q8T6U9)	–	–	–	0.0117 ± 0.0016 µM
CC(C)C[C@H](NC(=O)[C@H](C)NC(=O)[C@H](CCC(N)=O)NC(=O)[C@@H](NC(=O)[C@H](Cc1ccccc1)NC(=O)[C@H](CO)NC(=O)[C@H](CCCNC(=N)N)NC(=O)[C@H](CC(N)=O)NC(=O)[C@H](Cc1ccccc1)NC(=O)[C@H](CC(C)C)NC(=O)[C@H](CCCNC(=N)N)NC(=O)[C@H](Cc1ccccc1)NC(=O)[C@H](Cc1ccccc1)NC(=O)[C@@H](NC(=O)[C@H](CO)NC(=O)[C@H](CC(C)C)NC(=O)[C@H](CO)NC(=O)CNC(=O)[C@@H](N)CO)[C@@H](C)O)[C@@H](C)O)C(=O)O	uncharacterized protein	–	Streptococcus mutans	–	3.6 µM
C=Cc1ccc(NC(=O)CSc2nnc(-c3cccnc3)n2CC)cc1	Orco (Drosophila melanogaster, UniProt Q9VNB5)	calcium mobilization, agonist	HEK293 expressing Orco	–	102 µM
